Results gathered from unrelated publications.
Compare with care: the assays were run in different laboratories. Values joined by “and” are separate records of one study, mostly repeats; a detail may differ. ± marks the error that the study gave.

SMILES	assay	test system	setting	endpoint	value
CNc1ccc(-c2nc3ccc(O)cc3s2)cc1 [carbon-11 labelled]	ex vivo biodistribution	normal B6SJL mice, gut	intravenous, 30 min	uptake	4.99 ± 1.6 SUV
Cc1ccc(C(=O)N(CCCN)C(c2nc3snc(C)c3c(=O)n2Cc2ccccc2)C(C)C)cc1 (centres unmarked)	–	human patients	intravenous, 4 mg/day	grade ≥3 dysphagia patients	0%
CC(C)(C)c1ccc(O)c(CN(Cc2cc(C(C)(C)C)ccc2O)C2CCC(NC(N)=O)CC2)c1 (centres unmarked)	–	C57BL/6 mice, male, brain	intraperitoneal, 25 mg/kg, single dose	terminal elimination rate constant	1.94e-05 s⁻¹
C[Si](C)(C)O[Si](C)(C)C	regression	1-octanol/water	25 °C	log KOW	5.2
Cc1cc(Nc2cc3ncccc3c(N[C@@H]3C[C@H]4CC[C@@H](C3)N4CCC#N)n2)n[nH]1	–	healthy human	oral, 30 mg multiple doses, 14 days	subjects with epistaxis	17%
C[C@@H](Nc1cc(F)cc(F)c1)c1cc(C(=O)N(C)C)cc2c(=O)cc(N3CCOCC3)oc12	measured: autoimmune colitis	patients with advanced solid tumours	oral, dose not given, dose expansion phase I	treatment-related serious adverse events	0%
CSc1cc(C)nc(SC)c1NC(=O)CN1CCN(CCSc2nc3ccccc3[nH]2)CC1.Cl	–	mouse, nasal olfactory epithelium	intranasal, 50 µL of 3.24 mg/mL in 0.01 N HCl daily, 7 days	olfactory epithelium thickness	27.4 and 20.2 and 25.9 and 21.1 and 23.4
O=c1c2ccccc2oc2ccccc12	–	tricaprin-tricaprylin mixture	45 °C, tricaprin fraction 0.77	solubility	0.0527 mole fraction
CN(C(=O)n1cnc(-c2cccnc2)c1)C1CCCCC1	–	Wistar rat, medulla oblongata	oral, 10 mg/kg, 1 h, single dose	tissue concentration	61.8 ± 12.1 ng/g
COc1cc2nccc(Oc3ccc(NC(=O)c4cc5c(n(-c6ccccc6)c4=O)CCCC5=O)nc3)c2cc1OC	–	human, relapsed/refractory AML	oral, 10 mg once daily, grade ≥3, any causality	patients with decreased platelet	14.3%
COc1cc(Nc2ncc3c(n2)-c2ccc(Cl)cc2C(c2c(F)cccc2OC)=NC3)ccc1C(=O)O	measured: Diarrhea, grade 2	cancer patients, phase 1/2	oral, dose not given, added: pembrolizumab	patients with adverse event	8%
Cc1cn(-c2cc(NC(=O)c3ccc(C)c(Nc4nccc(-c5cccnc5)n4)c3)cc(C(F)(F)F)c2)cn1	population PK model, typical value	human, plasma	oral, dose not given, fasted state	peripheral volume of distribution (V2)	217 L
CNCc1ccc(-c2[nH]c3cc(F)cc4c3c2CCNC4=O)cc1	–	patients	oral, 480 mg twice daily, all grades	anaemia incidence	33.3%
O=C(CCc1ccc(O)cc1)c1c(O)cc(O)cc1O	–	human CSF	concentration not given, mean	CSF concentration	not detected
NC(N)=NCCC[C@@H](N)C(=O)N[C@@H](CCCN=C(N)N)C(=O)N1CCC[C@H]1C(=O)N1C[C@H](O)C[C@H]1C(=O)NCC(=O)N[C@@H](Cc1cccs1)C(=O)N[C@@H](CO)C(=O)N1Cc2ccccc2C[C@@H]1C(=O)N1[C@H](C(=O)N[C@@H](CCCN=C(N)N)C(=O)O)C[C@@H]2CCCC[C@@H]21	popPK base model typical value	human	subcutaneous, dose not given, reference weight 70 kg	peripheral volume (Vp/F)	1.75 L
Cl.[2H]C([2H])([2H])CC(=O)c1cnc(NC(=O)C2CC2)cc1Nc1cccc(-c2ncn(C([2H])([2H])[2H])n2)c1OC	geometric mean	human	oral, 10 mg once daily, day 7, fasted, liquid, multiple dose	AUC(0-inf)	1110 ng·h/mL
CC1(C)OB(/C=C/COc2ccc(OCc3ccccc3)cc2)OC1(C)C	oxidative cleavage releasing alcohol, 1H NMR	–	pH 7.4, added: H2O2	yield	98%
C=CC(=O)NC1CCN(c2ncc3ncnc(Nc4ccc(Oc5ccc6c(c5)ncn6C)c(C)c4)c3n2)CC1	–	healthy male volunteers, urine	oral, 60 mg, 14C-labelled	parent share of total radioactivity	~10%
CCOc1c([C@H](C)n2nc(C)c3c(N)ncnc32)cc(Cl)c(F)c1[C@@H]1CNC(=O)C1	–	human, all cohorts, plasma	oral, 30 mg, day 15, geometric mean	AUC(0-tau)	21.1 µM·h
NC1(C(=O)N[C@@H](CCO)c2ccc(Cl)cc2)CCN(c2nc[nH]c3nccc2-3)CC1	–	metastatic CRPC patients	320 mg b.i.d., grade 3 to 4, treatment-related, added: enzalutamide 160 mg daily	incidence of Dyspepsia	0%
COc1cc(N)c(Cl)cc1C(=O)NC1CCN(CCCOc2ccc(F)cc2)CC1OC (centres unmarked)	–	male Hartley guinea pigs, anaesthetized	intravenous, 1 mg/kg group, baseline before infusion	heart rate	254 ± 0.6 beats/min
O=C(O)CCC(=O)O.[2H]C([2H])([2H])Oc1cc(C)c2[nH]ccc2c1CN1CC[C@@H](C2CC2)C[C@H]1c1ccc(C(=O)O)cc1	multiple ascending dose	healthy Chinese subjects	50 mg twice daily	subjects with TEAE Acne	0%

SMILES	assay	test system	setting	endpoint	value
C[C@@H](O)CCOC(=O)C[C@@H](C)O	–	human	oral drink, dose not given, 180 min post dose, mean	systolic blood pressure	114 mmHg
COC(=O)N[C@H](C(=O)N[C@@H](Cc1ccccc1)[C@@H](O)CN(Cc1ccc(-c2ccccn2)cc1)NC(=O)[C@@H](NC(=O)OC)C(C)(C)C)C(C)(C)C	modified PAMPA Franz cell	phosphate buffer with HPMCAS	3 h, 300 rpm, 460 nm particles, added: no BSA	plateau flux concentration	147 µg/mL
CC(C)NCC(O)c1ccc(NS(C)(=O)=O)cc1 (racemic)	–	male Hartley guinea pigs, anaesthetized	intravenous, 10 mg/kg group, baseline before infusion	heart rate	233 ± 0.3 beats/min
Cc1ccnc([18F])c1-c1cccc(N2C[C@H](N3CCN(C(=O)c4nccs4)CC3)CC2=O)c1	PET, two-tissue compartment model	rhesus monkey, brain striatum	intravenous, baseline, arterial input	Ktrans	0.0003 min⁻¹
CCCCNCc1ccc(CNC(=O)c2csc3nc[nH]c(=O)c23)cc1	haemolysis	human red blood cells	1 h, 37 °C	EC50	> 100 µM
N#Cc1ccc2c(c1)[C@H]1CCCN(C(=O)c3ccc4[nH]cnc4c3)[C@H]1C2	–	human, male	10 mg, end of trial	androstenedione level	5.9 nmol/L
O=C(CCCN1CC=C(n2c(=O)[nH]c3ccccc32)CC1)c1ccc(F)cc1	–	male Hartley guinea pigs, anaesthetized	intravenous, 0.1 mg/kg group, baseline before infusion	heart rate	231 ± 0.7 beats/min
COCCOc1cnc2ccn([C@H](C)c3nnc4c(F)cc(-c5cnn(C)c5)cn34)c(=O)c2c1	–	patients	oral, 300 mg once daily, day 28, 24 h postdose, dose escalation	Ctrough	560 ng/mL
Cc1cc(C)c(CNC(=O)c2cc(Cl)c3c(c2C)O[C@@](C)([C@H]2CC[C@H](N(C)C)CC2)O3)c(=O)[nH]1	measured: Diarrhea	human patients	oral, 200 mg once daily, 1 day onset day 14	patients with TEAE	8.3%
O=C1c2ccncc2C(=O)c2c1[nH]c1ccccc21	–	Sprague-Dawley rat, male, lung	intravenous, 5 mg/kg, 24 h	tissue concentration	0.441 ± 0.015 nmol/mg
N#Cc1ccc(-c2cnc3ccc(-c4ccc(C(=O)N5CCOCC5)cc4)cn23)cc1	measured: QTcF interval	healthy volunteers	oral, 10 mg, fed, time-averaged	placebo-corrected change from baseline	1.8 ms
Cc1cc(NC2CCN(C(=O)OC3CCN(C(=O)/C=C/CN(C)C)C3)CC2)n2ncc(C(C)C)c2n1 (centres unmarked)	Phase I dose escalation CTCAE v4.0, measured: platelet count decreased	patients with advanced solid tumours	dose not given, Total dosing grade 3 or higher	patients with adverse event	7%
COc1ccc([C@@H](O)c2cc(-c3ncnc4cc(N5CCOCC5)ccc34)c(F)cc2Cl)nn1	–	locally advanced rectal cancer	all dose levels overall, added: capecitabine and radiotherapy	drug-related adverse events, general disorders	47%
CCC(=O)N(CCC(c1ccc2c(c1)OCO2)c1ccccc1OC)Cc1ccccc1 (centres unmarked)	–	female athymic nude mouse, blood	i.p., 60 mg/kg twice daily, 14 days, group mean	CHOL	75.2 mg/dL
COc1ccnc(C(=O)NC(CO)C(=O)O)c1O (racemic)	aerobic soil incubation	soil	worst-case terminal value, for exposure modelling	DT50	105 days
CN(C(=O)n1cnc(-c2ccc[n+]([O-])c2)c1)[C@H]1CC[C@H](O)CC1	–	rat, cerebellum	oral, 10 mg/kg daily for 5 days, 48 h	tissue concentration	8.3 ± 0.2 ng/g
[18F]c1ccc(-c2ccc3c(c2)[nH]c2ccncc23)cn1	ex vivo biodistribution	normal B6SJL mice, brain stem	intravenous, 30 min	uptake	0.484 ± 0.177 SUV
CCc1cc(C(=O)NC)c2nccc(N3CCc4c(cc(Cn5ccnc5)cc4-c4cn(C)nc4C(F)(F)F)C3=O)c2c1	–	Sprague Dawley rat	oral, 50 mg/kg once daily, day 3, 7-day toxicology study	body weight	237 ± 9.4 g
Cc1cc2sc(N)nc2c2cccnc12	–	female BALB/c mice, plasma	i.p., 30 mg/kg, observed	AUMC(0-inf)	223000 h²·ng/mL
COc1cccc(O)c1OS(=O)(=O)O	–	human CSF	concentration not given, mean	CSF concentration	not detected
CC(C)C[C@H](NC(=O)CNC(=O)c1cc(Cl)ccc1Cl)B(O)O	–	newly diagnosed multiple myeloma patients	oral, dose not given, Constipation, maintenance	adverse events all grades	11%
Oc1ccc(/C=C/c2cc(O)cc(O)c2)cc1	–	rat, azoxymethane-injected, blood	in vivo, 100 mg/kg, at sacrifice	D-BIL level	0.02 mg/dL and 0.01 mg/dL

Repeated from above:
SMILES	assay	test system	setting	endpoint	value
Cc1ccnc([18F])c1-c1cccc(N2C[C@H](N3CCN(C(=O)c4nccs4)CC3)CC2=O)c1	PET, two-tissue compartment model	rhesus monkey, brain striatum	intravenous, baseline, arterial input	Ktrans	0.0003 min⁻¹
CCCCNCc1ccc(CNC(=O)c2csc3nc[nH]c(=O)c23)cc1	haemolysis	human red blood cells	1 h, 37 °C	EC50	> 100 µM
N#Cc1ccc2c(c1)[C@H]1CCCN(C(=O)c3ccc4[nH]cnc4c3)[C@H]1C2	–	human, male	10 mg, end of trial	androstenedione level	5.9 nmol/L
O=C(CCCN1CC=C(n2c(=O)[nH]c3ccccc32)CC1)c1ccc(F)cc1	–	male Hartley guinea pigs, anaesthetized	intravenous, 0.1 mg/kg group, baseline before infusion	heart rate	231 ± 0.7 beats/min
COCCOc1cnc2ccn([C@H](C)c3nnc4c(F)cc(-c5cnn(C)c5)cn34)c(=O)c2c1	–	patients	oral, 300 mg once daily, day 28, 24 h postdose, dose escalation	Ctrough	560 ng/mL
